Assay results gathered from unrelated publications.
Numbered parts are unrelated; each lists some results of a single study. Changes are numbered by the printed parent chain.

Series 1
Target: Ras GTPase-activating protein-binding protein 1, full length (G3BP1, Homo sapiens, UniProt Q13283)
Sequence of UniProt Q13283 (whole entry, looked up): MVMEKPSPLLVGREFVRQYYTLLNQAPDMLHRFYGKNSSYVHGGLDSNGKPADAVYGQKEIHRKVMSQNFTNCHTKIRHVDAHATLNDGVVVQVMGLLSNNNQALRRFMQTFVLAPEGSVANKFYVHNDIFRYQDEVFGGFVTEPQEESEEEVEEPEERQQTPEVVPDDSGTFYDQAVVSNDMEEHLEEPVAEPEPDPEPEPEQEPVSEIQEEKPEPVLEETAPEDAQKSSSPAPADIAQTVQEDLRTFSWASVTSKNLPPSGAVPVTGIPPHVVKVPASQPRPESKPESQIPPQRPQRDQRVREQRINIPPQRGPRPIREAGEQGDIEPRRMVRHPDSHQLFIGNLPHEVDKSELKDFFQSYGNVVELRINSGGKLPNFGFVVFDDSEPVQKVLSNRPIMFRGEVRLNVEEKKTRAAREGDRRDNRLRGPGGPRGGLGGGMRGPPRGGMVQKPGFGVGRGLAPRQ
Technique: RNA Bind-n-Seq
Form: RNA
Medium: in vitro
Tested at: 200 nM
Notes: whole 134-nt RNA, ends assumed
Added: 150 mM LiCl
Reference: input library
Reading: higher = stronger binding
Measurement: log2 enrichment
Each molecule: 7-deaza-guanosine replaces G
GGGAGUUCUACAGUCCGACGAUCCACAGACAACACACACCCACACAGACACAGAGGGAAGGGGUUGGGAUGGGGACAGGGUGCACAGCAGGGCGGGGUAGGACCCCAGCCCCUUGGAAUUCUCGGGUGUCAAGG: -0.303
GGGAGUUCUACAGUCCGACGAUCUAACUUUAGAGGAGGAUCUGAUGGAUAUGGCAGUGGACGUGGAUUUGGGGAUGGCUAUUAUGGGUAUGGAGGAGGACCUGGAGGUGGCAAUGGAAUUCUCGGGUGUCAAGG: -0.117
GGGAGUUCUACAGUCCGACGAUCUCCUGUGCUACACAUCGUAUGUACCGAAUCGGUUUUUUGGGUUUUUUGGUUUUUUGGGGAAAGUAUUAUGUUACGCCGUUCGGAUCUGCAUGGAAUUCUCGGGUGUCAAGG: -0.223
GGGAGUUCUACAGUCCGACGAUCUAACUUUAGAGGAGGAUCUGAUGGAUAUGGCAGUGGACGUGGAUUUGGGGAUGGCUGUAAUGGGUAUGGAGGAGGACCUGGAGGUGGCAAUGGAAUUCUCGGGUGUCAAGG: 0.367
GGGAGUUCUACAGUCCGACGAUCUAACUUUAGAGGAGGAUCUGAGGGAUAUGGCAGUGGACGUGGAUUUGGGGAUGGCUAUAAUGGGUAUGGAGGAGGACCUGGAGGUGGCAAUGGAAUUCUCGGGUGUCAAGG: -0.178
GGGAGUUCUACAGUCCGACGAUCUAACUUUAGAGGAGGAUCUGAUGGAUAUGGCAGUGGACGUGGAUUUGGGGAUGGCUAUAAUGUGUAUGGAGGAGGACCUGGAGGUGGCAAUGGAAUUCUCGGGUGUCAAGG: 0.484
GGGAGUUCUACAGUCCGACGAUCGUCCUGUGCUACACAUCGUAUGUACCGAAUCGGCCCCCCGGGCCCCCCGGGCCCCCCGGAAAGUAUUAUGUUACGCCGUUCGGAUCUGCAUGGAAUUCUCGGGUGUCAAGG: -0.952
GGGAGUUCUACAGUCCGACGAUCGCAGGAAGUAAAAACAAAUGGAAAUGCUUCGGAUAGUGGCAGGGGUGGGGUUUGCUAAGGAAAGGGUGGGAUGGGAGUGGGUAAAGAGUUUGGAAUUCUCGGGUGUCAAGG: -0.128

Series 2
Target: ABI1, truncated, D143A, DHFR fusion (Arabidopsis thaliana)
Technique: DHFR PCA, deep sequencing
Medium: yeast
Notes: methotrexate growth selection, single substitutions
Added: (+)-ABA 2500 µM
Reference: wild-type fitted maximum
Reading: higher = stronger binding
Measurement: relative binding score
Starting sequence: PYL1, truncated, DHFR fusion (Arabidopsis thaliana); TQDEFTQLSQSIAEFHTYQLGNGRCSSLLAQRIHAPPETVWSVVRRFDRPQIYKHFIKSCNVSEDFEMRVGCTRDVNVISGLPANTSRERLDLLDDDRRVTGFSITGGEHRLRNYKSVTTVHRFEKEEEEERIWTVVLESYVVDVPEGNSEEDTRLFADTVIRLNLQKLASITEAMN; partner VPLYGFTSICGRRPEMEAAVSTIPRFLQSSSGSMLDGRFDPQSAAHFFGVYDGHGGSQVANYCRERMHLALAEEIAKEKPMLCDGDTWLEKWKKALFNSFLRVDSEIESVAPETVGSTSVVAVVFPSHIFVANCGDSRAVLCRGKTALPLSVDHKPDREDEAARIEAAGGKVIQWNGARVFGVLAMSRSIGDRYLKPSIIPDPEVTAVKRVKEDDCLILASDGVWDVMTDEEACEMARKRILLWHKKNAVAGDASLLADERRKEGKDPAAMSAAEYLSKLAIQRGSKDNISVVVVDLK
T73R: 93.3%
R111Y: 72.6%
C72V: 98.6%
L166I: 77.2%
T6W: 99.3%
D75Y: 96.3%
Q167N: 94.1%
F124R: 96.4%
I52K: 95.2%
P50K: -11.6%
P37Q: 86.8%
Q51P: 38.5%
V136N: 68.2%
Q2E: 90.8%
T1L: 98.4%
H55L: 95.4%
S26H: 103%
E4G: 97.1%
T106M: 107%
G23E: 94.9%

Series 3
Target: Histone acetyltransferase KAT6A, both winged helices, GST fusion (KAT6A, Homo sapiens, UniProt Q92794, residues 1-181)
Technique: protein binding microarray
Form: double-stranded DNA, one strand shown
Medium: in vitro
Tested at: not given
Notes: 8-mer, flanks averaged, mean of 2 arrays, mostly near background
Reference: not given
Reading: higher = stronger binding
Measurement: E-score
Construct (chain): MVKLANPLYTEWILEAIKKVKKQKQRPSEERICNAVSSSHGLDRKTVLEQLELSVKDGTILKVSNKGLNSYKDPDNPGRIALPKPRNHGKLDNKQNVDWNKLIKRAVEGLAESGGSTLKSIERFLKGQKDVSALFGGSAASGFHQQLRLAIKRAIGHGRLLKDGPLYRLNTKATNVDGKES
TCTGCACA: -0.0271
CAGGCCGA: -0.00528
ACAGCCTA: -0.15
ATGGTCCA: -0.157
TACGGAGA: 0.0976
ATTCATTG: -0.0757
AGGTCTAA: -0.126
ACTCGGTA: 0.00535
CCAATCGA: -0.0861
AGAACTAC: -0.0439
AAGTCGTG: -0.0523
CGCCTGTA: 0.0641
AAATACAT: -0.0462
TCCATCCA: -0.212
ACGCCACG: 0.168
CTGGCGCA: 0.0929
CCCTGTGC: 0.0351
CCCCCCGC: 0.0255
CACCTAAG: -0.0895
CACGCGTC: 0.293
CGTATTCC: 0.0719

Series 4
Target: RNA binding protein fox-1 homolog 2, RRM domain, GST-SBP tag (RBFOX2, Homo sapiens, UniProt O43251-10, residues 100-194)
Technique: RNA Bind-n-Seq
Form: RNA
Medium: in vitro
Tested at: 365 nM
Notes: natural RNA segment, single round, ends assumed
Reference: no-protein control
Reading: higher = stronger binding
Measurement: RBNS enrichment (R)
Residues (chain): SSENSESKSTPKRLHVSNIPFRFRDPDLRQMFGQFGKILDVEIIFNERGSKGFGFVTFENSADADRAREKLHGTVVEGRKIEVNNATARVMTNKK
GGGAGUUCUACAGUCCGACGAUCCACCUUGAGGGGCUGACCUGUGUUAGGCAGUGGCCAUGGCCCAGUGUGAUGUUGUGUUGCUCACACACGCCACCCAGCCACCCAUGCGCUGCCUGACCACAGCAACCCCCUGGAAUUCUCGGGUGCCAA: 0.309
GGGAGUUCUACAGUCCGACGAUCGCUGAAGGUGGGGCCUAGGGAGGGGGCACUGAAGCAAUCUCCUGCUCCAACGCACAAUCCUUACUGUGCCCUUUCCACCCCCACACUCACACCAAUCUGCAGAAACCUCUUGGAAUUCUCGGGUGCCAA: 0.157
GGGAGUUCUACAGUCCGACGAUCCCUUGGCAACACUGGAGUGCACACGCCGCCACGGUUGCCCAGAAAAAGUGCCCAAGCUGCUGACGCAAACAACAACAAAUGCUGCUUAUUUGCAUGCCGACUUACAUAUAUGGAAUUCUCGGGUGCCAA: 0.987
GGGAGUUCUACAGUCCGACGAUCGGAGCAGGGCAGCUCUACCAGGCAAGGUGUUUCCCCAGCAUAGGCGCAGACAGUUGGGACGAAACUUCAGAGCCCAGGCAGUCCCUGAAUGACCAGGCCAGUGUUGUCACUGGAAUUCUCGGGUGCCAA: 0.457
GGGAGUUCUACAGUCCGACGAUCAAGCUGCUUCCUCUUAUAAAAUAGCUUUUGCCGAAACAUAGUUUUUUUUUAGCAGAUCCCAAAAUAUAAUGAAGGGGAUGGUGGGAUAUUUGUGUCUGUGUUCUUAUAAUUGGAAUUCUCGGGUGCCAA: 0.381
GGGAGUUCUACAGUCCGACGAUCAUUUCCAGAUCUUUGGCAUUUUCCCCGCGCUGACUCUUUGAUGAUCCUUCACUGUGGCCUUUUCAAGCUCAGCUGUUCCUGUUGUAUUUGAGACGAGGGUGAGGGAAUGUUGGAAUUCUCGGGUGCCAA: 0.219
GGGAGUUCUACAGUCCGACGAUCCCCAGGCCAGAAUAACAGAGCUUUCUUAGUUGGUGAAGACUUAAACAUCUGCCUGAGGUCAGGAGGCAAUUUGCCUGCCUUGUACAAAAGCUCAGGUGAAAGACUGAGAUUGGAAUUCUCGGGUGCCAA: 0.296
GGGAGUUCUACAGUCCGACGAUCCAGCUAAUUUUUGUAUUUUUAGUAGAGAUGGGAUUUUGUCAUGUUGGCUAGGCUAGUCUCGAAUUCCUGACCUCAAGUGAUCCACCCGCCUUGGCCUCUCGAAGUGCUGGUGGAAUUCUCGGGUGCCAA: 1.54

Excerpt of the above (series 3):
AGGTCTAA: -0.126
ACTCGGTA: 0.00535
CCAATCGA: -0.0861
AGAACTAC: -0.0439
AAGTCGTG: -0.0523
CGCCTGTA: 0.0641
AAATACAT: -0.0462
TCCATCCA: -0.212
ACGCCACG: 0.168
